Experimental data from different studies.
Every numbered part comes from another study and shows a few of its results, in no order. Changes are numbered by the printed parent chain.

Study 1 — technique: protein-binding microarray; molecule type: double-stranded DNA, one strand shown; matrix: in vitro; tested at: 0.8 µM; setting: whole 60-bp probe, no competitor; direction: higher = stronger binding
Target: Centromere-binding protein 1, full length, N-terminal tag (CBF1, Saccharomyces cerevisiae, UniProt P17106, residues 1-351)
UniProt P17106, sequence (whole entry, looked up): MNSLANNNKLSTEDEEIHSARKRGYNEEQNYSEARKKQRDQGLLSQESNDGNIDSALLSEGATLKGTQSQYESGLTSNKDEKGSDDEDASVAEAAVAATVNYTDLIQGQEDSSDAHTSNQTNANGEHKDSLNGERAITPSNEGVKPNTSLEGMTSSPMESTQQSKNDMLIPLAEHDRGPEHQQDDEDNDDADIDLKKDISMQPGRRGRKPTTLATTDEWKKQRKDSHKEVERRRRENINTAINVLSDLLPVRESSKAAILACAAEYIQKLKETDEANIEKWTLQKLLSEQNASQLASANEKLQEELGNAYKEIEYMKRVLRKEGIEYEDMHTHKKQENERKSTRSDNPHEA
| Sequence | fluorescence intensity [a.u.] |
| --- | --- |
| GAAAATTCAATCTGGCACGGCACAAGTTCCATCTAGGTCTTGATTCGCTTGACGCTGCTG | 482 |
| GAACGGTGGGCATTGTACCTGATCATGCTAGACTAGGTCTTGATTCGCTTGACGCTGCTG | 527 |
| CTAAAGGGCATACATGACGTGGATATATGTAAATTCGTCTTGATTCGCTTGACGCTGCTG | 491 |
| CTACGTTGTGGGCACCACCACTCACAGTATCCTTTCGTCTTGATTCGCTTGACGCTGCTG | 496 |
| CTAGTCAAAAAATCTCGTGAGACCTCCGGAATTTTCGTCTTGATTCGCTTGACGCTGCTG | 577 |
| CCTAACTACTATAGAGCCGTGATATAGCTTCGTACAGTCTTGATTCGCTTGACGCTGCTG | 547 |
| CTAATCAACAAGGTTGTCATGAGGAGTTACAGATTCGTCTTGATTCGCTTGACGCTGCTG | 501 |
| CTACACACCACACACTACGTCACAACACAACAATTCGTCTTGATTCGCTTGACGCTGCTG | 634 |

Study 2 — technique: DHFR PCA, deep sequencing; matrix: yeast; with: (+)-ABA 0.11 µM; reference: wild-type fitted maximum; direction: higher = stronger binding
Target: ABI1, truncated, D143A, DHFR fusion (Arabidopsis thaliana)
Setting: methotrexate growth selection, single substitutions
Starting sequence: PYL1, truncated, DHFR fusion (Arabidopsis thaliana); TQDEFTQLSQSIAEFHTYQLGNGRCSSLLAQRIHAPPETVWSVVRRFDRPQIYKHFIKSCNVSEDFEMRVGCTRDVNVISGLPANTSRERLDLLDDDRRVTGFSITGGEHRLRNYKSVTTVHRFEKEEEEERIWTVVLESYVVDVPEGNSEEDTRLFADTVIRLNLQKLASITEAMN; partner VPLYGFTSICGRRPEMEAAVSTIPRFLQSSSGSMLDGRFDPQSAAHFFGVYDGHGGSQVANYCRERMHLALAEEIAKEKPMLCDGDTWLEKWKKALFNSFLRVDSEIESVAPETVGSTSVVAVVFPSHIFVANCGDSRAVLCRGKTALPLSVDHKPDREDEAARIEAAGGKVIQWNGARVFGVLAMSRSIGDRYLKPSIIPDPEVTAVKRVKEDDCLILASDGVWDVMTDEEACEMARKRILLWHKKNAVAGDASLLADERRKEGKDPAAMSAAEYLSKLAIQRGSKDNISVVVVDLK
| Change | relative binding score |
| --- | --- |
| L8H | 1.07% |
| H34M | 48% |
| S63W | 2.56% |
| L20G | 36.9% |
| G102R | -2.51% |
| G21Y | 5.37% |
| F66H | 15% |
| S59K | 41.8% |

Study 3 — technique: RNA Bind-n-Seq; molecule type: RNA; matrix: in vitro; tested at: 365 nM; reference: no-protein control; direction: higher = stronger binding
Target: RNA binding protein fox-1 homolog 2, RRM domain, GST-SBP tag (RBFOX2, Homo sapiens, UniProt O43251-10, residues 100-194)
Setting: natural RNA segment, single round, ends assumed
Construct (chain): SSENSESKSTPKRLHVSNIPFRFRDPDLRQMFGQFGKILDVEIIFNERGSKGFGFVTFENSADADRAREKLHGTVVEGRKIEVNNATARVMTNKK
| Sequence | RBNS enrichment (R) |
| --- | --- |
| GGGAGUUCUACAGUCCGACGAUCCCACGACUAUGGUGGGAAAAACCAUUUUUUAAAGGACACAUACGAUGGUGUAUCUCUCUGUGUAAUGGUGAGCCAUGCUGCAAGGUUGUAGCCUUGGCCCGAAGACAGAAUGGAAUUCUCGGGUGCCAA | 0.225 |
| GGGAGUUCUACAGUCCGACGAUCCCUGCUACAGAGGGGAAGAAAGUGUACCCUCCAAUGUGAUAAAUCUUCUGAUGCCCCCAGACUCUUGGAGCACAUCCUGGUGCCCCUCCUGCAGGAGCCUGUGGCAUAUUUGGAAUUCUCGGGUGCCAA | 0.439 |
| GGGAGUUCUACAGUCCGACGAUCGCUUGGAUAUAAAAUCACUGAGCUGUUUCCGGUUCUCUCUAAGUUUGGGAAUCCUAUGUGUAUUUAGUUCUGACUAGUCGUUUGAGGUCUCGGUGGCAGAGCCUGGCUAGUGGAAUUCUCGGGUGCCAA | 0.703 |
| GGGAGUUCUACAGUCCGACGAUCAGAAAUAUUCAGAUACAAGUUUUAUCUCAGGUGAAUAUCCUUGUAUCGUUUUGCUUUGCUGACAUGUUUAUAAAGAAAGACCAUCAUACUUAAUAGUCUUUGGAGGUUUGUGGAAUUCUCGGGUGCCAA | 0.585 |
| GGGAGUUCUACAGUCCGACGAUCUUCCCCCGACUUUCCUCUGGGAUAUAAAAAAGGGGGUAAGGGGGCAAAGAGAGCCCUCUGGGCCUCUCCUCCCAUACACACUACACUGCCCCUUCUCCCCCCAUCAAAACUGGAAUUCUCGGGUGCCAA | 0.63 |
| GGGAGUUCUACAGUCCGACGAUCUAGUAUAUUCCUGUAAAUGUCAGUUACUGAAAAUGAGUCCAUUGUAAGUAGUUUAGCUUGUUUUUUGCAAUGCCGGCCUCAACACCACAGAGUAAAAAAAAAAAAAAAACUGGAAUUCUCGGGUGCCAA | 1.14 |
| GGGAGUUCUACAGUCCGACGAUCAUGUGGGUGUUAGAAAAAUUACCAUAUAGCUUAAUAUGUUUAUUAGUUCUCUUUGGAAAAAAACUACCACUGUGGUCUUAAAAGGGAACAAAAUAUACCAUAGGCUAAAAUGGAAUUCUCGGGUGCCAA | 0.479 |
| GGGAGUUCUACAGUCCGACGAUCCCACCUCCUUGCUUUUUCUUUCACUGAUACCACUGAAUGGAACUGGUGCUGUGACUCCUGCUGCUGGGGAUUUAUGUCCCGAGACCUUAGCCUGGCUGAGUGGAGCCUGAUGGAAUUCUCGGGUGCCAA | 0.82 |

Mixed results
Starting sequence: viral docking peptide; CKVKRKLFGSENI; partner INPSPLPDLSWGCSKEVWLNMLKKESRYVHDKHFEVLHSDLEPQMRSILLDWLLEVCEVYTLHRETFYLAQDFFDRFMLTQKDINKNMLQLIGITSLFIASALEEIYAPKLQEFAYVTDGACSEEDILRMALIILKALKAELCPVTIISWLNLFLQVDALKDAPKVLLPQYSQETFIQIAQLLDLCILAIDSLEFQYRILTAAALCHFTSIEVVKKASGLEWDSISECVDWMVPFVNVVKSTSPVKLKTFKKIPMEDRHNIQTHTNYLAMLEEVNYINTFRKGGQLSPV
| Change | target | test | system | setting | scale | measurement | value |
| --- | --- | --- | --- | --- | --- | --- | --- |
| F8A | CCNE2, cyclin fold, Cln2 fusion (human) | yeast growth competition, sequencing | yeast | strong parent motif | reference: not given, higher = stronger binding | normalised enrichment score | -0.272 |

Excerpt of the above (study 2):
| Change | relative binding score |
| --- | --- |
| L20G | 36.9% |
| F66H | 15% |
| H34M | 48% |
| S63W | 2.56% |
